Assay results collected from several papers.

Structure (SMILES) | organism | assay | system | conditions | endpoint | result
CC[C@H](C)[C@H](NC(=O)[C@H](CC(C)C)NC(=O)[C@H](CCCNC(=N)N)NC(=O)[C@@H](N)CCCNC(=N)N)C(=O)N[C@@H](CC(C)C)C(=O)N[C@H](C(=O)N[C@@H](CCCCN)C(=O)N[C@H](C(=O)NCC(=O)N1CCC[C@H]1C(=O)N[C@H](C(=O)N[C@H](C(=O)N[C@@H](Cc1ccc(O)cc1)C(=O)N[C@@H](CCCCN)C(=O)N[C@@H](Cc1ccc(O)cc1)C(=O)N[C@@H](Cc1ccccc1)C(=O)N[C@@H](CCCCN)C(=O)N[C@@H](CCCCN)C(=O)N[C@@H](CCC(N)=O)C(=O)N[C@@H](CC(C)C)C(=O)N[C@@H](CCCCN)C(=O)N[C@@H](CCCCN)C(=O)N[C@@H](CC(C)C)C(N)=O)[C@@H](C)CC)[C@@H](C)CC)[C@@H](C)O)[C@@H](C)O | Staphylococcus aureus | – | CCARM 3095, methicillin-resistant, Mueller-Hinton broth | 24 h | MIC | 32 µM
Cc1ccc2[nH]c3c(c2c1)CCCC3NCCc1ccc(Br)cc1 (stereo not drawn) | Staphylococcus aureus | broth microdilution | SG511 daptomycin-resistant | – | MIC | 4 µg/mL
Cn1c(=O)ccc2ccc(F)c(CCNC[C@H]3CN(c4cnc5c(n4)NC(=O)CO5)C(=O)O3)c21 | Staphylococcus aureus | – | ATCC 29213 | – | MIC | 0.008 µg/mL
COC(=O)c1cc(-c2cccc(NC(=O)Nc3ccc(C(F)(F)F)cc3)c2)on1 | Staphylococcus aureus | – | ATCC 29213, CAMHB | 16 to 18 h | MIC | 16 µg/mL
CC[C@H](C)[C@H](NC(=O)[C@H](CC(C)C)NC(=O)[C@H](CCCNC(=N)N)NC(=O)[C@@H](N)CCCNC(=N)N)C(=O)N[C@@H](CCCNC(=N)N)C(=O)N[C@@H](CCCCN)C(=O)N[C@@H](CC(C)C)C(=O)N[C@@H](CCCCN)C(=O)NCC(=O)N[C@@H](CC(C)C)C(=O)N[C@@H](CCCCN)C(=O)N[C@@H](CCCCN)C(=O)N[C@@H](Cc1ccc(O)cc1)C(=O)N[C@@H](CC(C)C)C(=O)N[C@@H](Cc1ccc(O)cc1)C(=O)N[C@@H](Cc1ccccc1)C(=O)N[C@@H](CCCCN)C(=O)N[C@@H](CC(C)C)C(=O)N[C@@H](CCC(N)=O)C(=O)N[C@@H](CC(C)C)C(=O)N[C@@H](CC(C)C)C(=O)N[C@@H](CCCCN)C(=O)N[C@@H](CCCCN)C(N)=O | Staphylococcus aureus | – | KCTC 1621, Mueller-Hinton broth | added: 150 mM NaCl | MIC | 4 µM
CC(=O)NC[C@H]1CN(c2ccc(N3CCOCC3)c(F)c2)C(=O)O1 | Staphylococcus aureus | – | MRSA strain 4 | – | MIC | 0.5 µg/mL
CC[C@H](C)[C@H](NC(=O)[C@H](Cc1c[nH]c2ccccc12)NC(=O)[C@@H](NC(=O)[C@H](Cc1c[nH]c2ccccc12)NC(=O)[C@@H]1CCCN1C(=O)[C@@H](NC(=O)[C@H](C)N)[C@@H](C)CC)[C@@H](C)CC)C(=O)N[C@@H](Cc1c[nH]c2ccccc12)C(=O)N[C@@H](CCCNC(=N)N)C(=O)N[C@@H](CC(C)C)C(=O)N[C@@H](CC(C)C)C(=O)N[C@@H](CCCNC(=N)N)C(=O)N[C@@H](CCCCN)C(=O)NCC(N)=O | Staphylococcus aureus | broth microdilution | ATCC 19609 | 18 h, 37 °C | MIC | 3.75 µM
CCCCCCCCCCCCCCCC(=O)NS(=O)(=O)OCCCC | Staphylococcus aureus | – | ATCC 33591 methicillin-resistant | – | MIC | > 200 µg/mL
CC[C@H](C)[C@H](NC(=O)[C@H](CC(C)C)NC(=O)[C@H](CCCNC(=N)N)NC(=O)[C@H](Cc1c[nH]c2ccccc12)NC(=O)[C@H](CCCNC(=N)N)NC(=O)[C@H](CCCCN)NC(=O)[C@H](CCCNC(=N)N)NC(=O)[C@H](Cc1c[nH]c2ccccc12)NC(=O)[C@H](Cc1c[nH]cn1)NC(=O)[C@@H](NC(=O)CNC(=O)CNC(=O)[C@H](CCSC)NC(=O)[C@H](C)NC(=O)[C@@H](N)CC(C)C)C(C)C)C(=O)N[C@@H](C)C(=O)N[C@@H](CC(N)=O)C(=O)N[C@@H](CCSC)C(=O)N[C@@H](CCCNC(=N)N)C(=O)N[C@H](C(=O)N[C@@H](Cc1c[nH]c2ccccc12)C(=O)N[C@@H](Cc1c[nH]cn1)C(=O)N[C@@H](CCCNC(=N)N)C(=O)N1CCC[C@H]1C(=O)N[C@@H](CC(N)=O)C(=O)N[C@@H](Cc1ccccc1)C(=O)N[C@@H](CCCNC(=N)N)C(=O)N[C@@H](CC(=O)O)C(=O)N[C@@H](Cc1c[nH]cn1)C(=O)O)[C@@H](C)CC | Staphylococcus aureus | broth microdilution | ATCC 29213, Mueller-Hinton broth | 16 to 20 h, 37 °C | MIC | 37.9 µM
CC[C@H](C)[C@H](NC(=O)[C@H](CC(C)C)NC(=O)[C@H](CCCNC(=N)N)NC(=O)[C@H](CC(C)C)NC(=O)[C@@H](NC(=O)[C@@H](NC(=O)[C@H](CCCNC(=N)N)NC(=O)[C@@H](NC(=O)[C@@H](NC(=O)[C@H](CCCNC(=N)N)NC(=O)[C@H](CCCNC(=N)N)NC(=O)[C@H](CCCNC(=N)N)NC(=O)[C@H](CO)NC(=O)[C@@H](N)CCCNC(=N)N)[C@@H](C)CC)[C@@H](C)CC)[C@@H](C)CC)C(C)C)C(=O)N[C@@H](CCCNC(=N)N)C(=O)N[C@@H](CCCNC(=N)N)C(=O)N[C@@H](CO)C(=O)N[C@@H](C)C(=O)N[C@@H](CCCNC(=N)N)C(N)=O | Staphylococcus aureus | broth microdilution | ATCC 29213 | highest value reported | MIC | 8 µM
CCCCCCC#Cc1cncc(-c2nnc(SCc3cc([N+](=O)[O-])cc([N+](=O)[O-])c3)n2CCOC2OC(CN)C(O)C2O)c1 (stereo not drawn) | Staphylococcus aureus | broth microdilution | Mu50 MRSA VISA | 18 to 24 h, 37 °C | MIC | > 64 µg/mL
C[C@H]1c2cccc(O)c2C(=O)C2=C(O)[C@]3(O)C(=O)C(C(N)=O)=C(O)[C@@H](N(C)C)[C@@H]3[C@@H](O)[C@@H]21 | Plasmodium falciparum | – | 7G8 | – | IC50 | 3.98 µM
C/C(=C\C(=O)OCCCCCCCC(=O)Nc1c2sscc-2[nH]c1=O)[C@@H](O)[C@@H]1OC[C@H](C/C=C/[C@@H](C)[C@H](C)O)[C@@H](O)[C@H]1O | Staphylococcus aureus | – | MRSA COL, IleRS F587V/V631F mutant | – | MIC | 0.04 µM
C=CCc1ccccc1OCC(O)CNC(C)C (stereo not drawn) | Plasmodium falciparum | – | 3D7 | – | IC50 | 10 µM
CN[C@H](CC(C)C)C(=O)N[C@H]1C(=O)N[C@@H](CC(N)=O)C(=O)N[C@H]2C(=O)NC3C(=O)N[C@H](C(=O)N[C@H](C(=O)NCCC[N+](C)(C)C)c4cc(O)cc(O)c4-c4cc3ccc4O)[C@H](O)c3ccc(c(Cl)c3)Oc3cc2cc(c3OC2OC(CO)C(O)[C@H](O)[C@@H]2O[C@H]2CC(C)(NCc3ccc(-c4ccc(Cl)cc4)cc3)[C@H](O)[C@H](C)O2)Oc2ccc(cc2Cl)[C@H]1O (stereo partly drawn) | Staphylococcus aureus | – | VRS2 (VanA VRSA) | – | MIC | 4 µg/mL

Some of these lines once more:
Structure (SMILES) | organism | assay | system | conditions | endpoint | result
CC[C@H](C)[C@H](NC(=O)[C@H](CC(C)C)NC(=O)[C@H](CCCNC(=N)N)NC(=O)[C@H](Cc1c[nH]c2ccccc12)NC(=O)[C@H](CCCNC(=N)N)NC(=O)[C@H](CCCCN)NC(=O)[C@H](CCCNC(=N)N)NC(=O)[C@H](Cc1c[nH]c2ccccc12)NC(=O)[C@H](Cc1c[nH]cn1)NC(=O)[C@@H](NC(=O)CNC(=O)CNC(=O)[C@H](CCSC)NC(=O)[C@H](C)NC(=O)[C@@H](N)CC(C)C)C(C)C)C(=O)N[C@@H](C)C(=O)N[C@@H](CC(N)=O)C(=O)N[C@@H](CCSC)C(=O)N[C@@H](CCCNC(=N)N)C(=O)N[C@H](C(=O)N[C@@H](Cc1c[nH]c2ccccc12)C(=O)N[C@@H](Cc1c[nH]cn1)C(=O)N[C@@H](CCCNC(=N)N)C(=O)N1CCC[C@H]1C(=O)N[C@@H](CC(N)=O)C(=O)N[C@@H](Cc1ccccc1)C(=O)N[C@@H](CCCNC(=N)N)C(=O)N[C@@H](CC(=O)O)C(=O)N[C@@H](Cc1c[nH]cn1)C(=O)O)[C@@H](C)CC | Staphylococcus aureus | broth microdilution | ATCC 29213, Mueller-Hinton broth | 16 to 20 h, 37 °C | MIC | 37.9 µM
